Published values collected from several papers.
Parts stem from different laboratories: compare values within a part only. Changes are numbered by the printed parent chain.
UniProt P07949, sequence (whole entry, looked up): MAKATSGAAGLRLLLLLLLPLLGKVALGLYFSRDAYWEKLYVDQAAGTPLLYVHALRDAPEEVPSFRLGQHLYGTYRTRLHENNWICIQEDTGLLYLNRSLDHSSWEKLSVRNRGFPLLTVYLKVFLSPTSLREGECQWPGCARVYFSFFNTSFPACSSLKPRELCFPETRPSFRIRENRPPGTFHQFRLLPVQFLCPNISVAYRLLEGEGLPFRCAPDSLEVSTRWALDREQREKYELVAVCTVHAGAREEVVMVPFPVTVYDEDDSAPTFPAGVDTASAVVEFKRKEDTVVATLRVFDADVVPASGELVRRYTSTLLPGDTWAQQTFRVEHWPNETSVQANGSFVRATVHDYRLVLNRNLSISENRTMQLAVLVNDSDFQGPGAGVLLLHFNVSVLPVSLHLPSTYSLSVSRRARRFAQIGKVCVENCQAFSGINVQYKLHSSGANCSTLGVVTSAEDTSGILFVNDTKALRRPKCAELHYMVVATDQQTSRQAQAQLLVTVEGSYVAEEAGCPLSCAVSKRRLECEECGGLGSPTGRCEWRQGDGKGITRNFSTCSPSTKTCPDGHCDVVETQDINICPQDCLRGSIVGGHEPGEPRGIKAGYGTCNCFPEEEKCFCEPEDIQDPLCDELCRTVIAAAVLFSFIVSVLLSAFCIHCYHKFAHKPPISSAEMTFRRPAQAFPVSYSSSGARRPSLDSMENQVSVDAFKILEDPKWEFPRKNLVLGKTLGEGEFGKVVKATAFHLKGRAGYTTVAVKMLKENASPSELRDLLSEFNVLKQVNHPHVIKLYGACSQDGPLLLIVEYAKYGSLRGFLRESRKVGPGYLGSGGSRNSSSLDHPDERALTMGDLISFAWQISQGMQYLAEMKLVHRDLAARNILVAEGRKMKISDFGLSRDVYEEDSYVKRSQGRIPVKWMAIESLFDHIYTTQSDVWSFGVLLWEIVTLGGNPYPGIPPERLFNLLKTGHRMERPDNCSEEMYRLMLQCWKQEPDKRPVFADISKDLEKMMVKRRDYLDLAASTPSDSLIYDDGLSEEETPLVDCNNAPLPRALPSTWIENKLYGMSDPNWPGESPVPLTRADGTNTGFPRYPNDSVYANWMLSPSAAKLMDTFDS
UniProt P62344, sequence (whole entry, looked up): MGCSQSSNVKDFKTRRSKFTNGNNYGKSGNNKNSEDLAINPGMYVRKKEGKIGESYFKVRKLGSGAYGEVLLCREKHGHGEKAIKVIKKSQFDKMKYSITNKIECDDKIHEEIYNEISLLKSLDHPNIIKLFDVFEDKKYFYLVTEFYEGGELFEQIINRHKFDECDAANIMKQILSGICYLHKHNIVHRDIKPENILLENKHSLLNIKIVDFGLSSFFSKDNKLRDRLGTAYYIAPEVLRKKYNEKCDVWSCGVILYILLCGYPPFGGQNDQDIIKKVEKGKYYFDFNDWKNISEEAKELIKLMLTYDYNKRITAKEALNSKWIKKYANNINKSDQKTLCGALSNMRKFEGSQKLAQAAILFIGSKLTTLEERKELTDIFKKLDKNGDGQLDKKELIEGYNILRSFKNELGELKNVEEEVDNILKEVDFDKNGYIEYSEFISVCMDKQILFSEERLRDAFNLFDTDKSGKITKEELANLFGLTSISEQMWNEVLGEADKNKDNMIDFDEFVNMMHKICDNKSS

Series 1 — target: CCNE1, cyclin fold, Cln2 fusion (human); technique: yeast growth competition, sequencing; matrix: yeast; setting: strong parent motif; relative to: not given; direction: higher = stronger binding; starting sequence: viral docking peptide; TSVRRALFTGGSD
Under “normalised enrichment score”, `R5D` is recorded as -0.0761.
`A6C`: “normalised enrichment score” 5.28.
Under “normalised enrichment score”, `V3M` is recorded as 0.549.
Under “normalised enrichment score”, `G10L` is recorded as 5.
Under “normalised enrichment score”, `R5A L7A` is recorded as -0.176.
Under “normalised enrichment score”, `L7R` is recorded as 0.298.
`V3R`: “normalised enrichment score” 0.259.
`T9W`: “normalised enrichment score” 3.21.

Series 2 — effect on: phage display binding; technique: phage display panning NGS; molecule type: peptide; setting: panning round 3; relative to: OGT-panned over input library
Target: UDP-N-acetylglucosamine--peptide N-acetylglucosaminyltransferase 110 kDa subunit (OGT, Homo sapiens, UniProt O15294)
UniProt O15294, sequence (whole entry, looked up): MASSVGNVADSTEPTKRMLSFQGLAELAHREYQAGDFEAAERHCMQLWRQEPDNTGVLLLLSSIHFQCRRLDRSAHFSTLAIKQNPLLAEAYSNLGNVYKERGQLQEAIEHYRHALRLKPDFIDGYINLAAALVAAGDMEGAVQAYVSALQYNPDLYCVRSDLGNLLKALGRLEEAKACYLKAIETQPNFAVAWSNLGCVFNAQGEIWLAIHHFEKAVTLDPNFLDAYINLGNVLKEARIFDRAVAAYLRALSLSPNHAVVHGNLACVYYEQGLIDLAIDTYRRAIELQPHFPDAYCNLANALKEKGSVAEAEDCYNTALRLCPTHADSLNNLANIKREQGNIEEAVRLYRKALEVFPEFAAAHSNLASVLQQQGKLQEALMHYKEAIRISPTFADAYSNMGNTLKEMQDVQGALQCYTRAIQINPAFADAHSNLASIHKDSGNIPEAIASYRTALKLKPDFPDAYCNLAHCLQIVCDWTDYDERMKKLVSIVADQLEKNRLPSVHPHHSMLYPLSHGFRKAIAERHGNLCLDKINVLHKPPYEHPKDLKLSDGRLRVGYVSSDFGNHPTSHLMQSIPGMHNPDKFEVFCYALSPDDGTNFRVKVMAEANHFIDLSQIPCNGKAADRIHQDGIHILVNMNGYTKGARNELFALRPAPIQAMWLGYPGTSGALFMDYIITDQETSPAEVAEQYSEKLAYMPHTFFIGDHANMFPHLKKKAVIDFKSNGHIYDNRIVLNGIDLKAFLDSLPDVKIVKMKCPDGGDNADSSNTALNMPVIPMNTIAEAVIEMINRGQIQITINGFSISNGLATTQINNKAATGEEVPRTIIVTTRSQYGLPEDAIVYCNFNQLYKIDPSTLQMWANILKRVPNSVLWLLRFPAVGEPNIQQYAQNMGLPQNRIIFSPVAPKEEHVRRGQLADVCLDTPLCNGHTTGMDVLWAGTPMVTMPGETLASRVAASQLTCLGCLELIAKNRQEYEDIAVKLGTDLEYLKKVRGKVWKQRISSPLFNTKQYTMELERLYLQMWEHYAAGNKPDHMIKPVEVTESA
The fold enrichment of `EFFPPAYQLVVPYGD` is reported as 3.04.
The fold enrichment of `EALFRYTPFYQIDI` is reported as 3.16.
With `VKTYEPFYLIDMNRQ` the fold enrichment was 1.62.
For `SFVVPRYQIIYKPFQ`, the fold enrichment was 2.63.
For `NNNIYWPKYQITNTL`, the fold enrichment was 2.1.
With `NTPQYYRPYYQITVK` the fold enrichment was 2.44.
For `SDDLYAPQYQIFFNA`, the fold enrichment was 4.85.
`YFGRVTFPPKYQIVF` gave a fold enrichment of 4.4.

Single results of other studies
`COC[C@H]1OC(=O)c2coc3c2[C@@]1(C)C1=C(C3=O)[C@@H]2CCC(=O)[C@@]2(C)C[C@H]1OC(C)=O` gave a remaining activity of 96.9% (Proto-oncogene tyrosine-protein kinase receptor Ret (RET, Homo sapiens, UniProt P07949); enzyme activity, inhibitor; 0.5 µM; relative to: control).
For `N#CC1(c2ccccn2)CCN(Cc2cc(C(=O)O)c(=O)n3ccccc23)CC1`, the remaining binding was 88% (Calcium-dependent protein kinase 1 (CDPK1, Plasmodium falciparum, UniProt P62344); cell-free assay, competition with immobilised ligand; 1 µM).

Some of these lines once more (series 1):
Under “normalised enrichment score”, `L7R` is recorded as 0.298.
`V3R`: “normalised enrichment score” 0.259.
